Experimental data gathered from unrelated publications.
Lines come from different studies, so protocols differ. Numbers after ± are the reported error.
U2AF2: U2AF2 148-342 (Homo sapiens, UniProt P26368)
UniProt P26368, sequence (whole entry, looked up): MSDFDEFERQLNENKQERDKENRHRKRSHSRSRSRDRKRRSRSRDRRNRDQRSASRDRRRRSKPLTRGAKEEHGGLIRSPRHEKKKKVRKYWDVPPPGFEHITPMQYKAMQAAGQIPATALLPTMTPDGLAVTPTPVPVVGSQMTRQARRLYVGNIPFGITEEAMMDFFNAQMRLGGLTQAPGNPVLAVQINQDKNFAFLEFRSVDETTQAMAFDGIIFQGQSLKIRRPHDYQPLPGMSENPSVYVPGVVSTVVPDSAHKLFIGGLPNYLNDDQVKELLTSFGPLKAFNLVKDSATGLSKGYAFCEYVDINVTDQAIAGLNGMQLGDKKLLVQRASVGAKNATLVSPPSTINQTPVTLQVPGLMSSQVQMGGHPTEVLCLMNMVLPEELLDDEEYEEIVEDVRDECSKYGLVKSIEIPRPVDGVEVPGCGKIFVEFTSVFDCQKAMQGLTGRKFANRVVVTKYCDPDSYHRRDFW
B1: human erbin; sequence looked up; chain MTTKRSLFVRLVPCRCLRGEEETVTTLDYSHCSLEQVPKEIFTFEKTLEELYLDANQIEELPKQLFNCQSLHKLSLPDNDLTTLPASIANLINLRELDVSKNGIQEFPENIKNCKVLTIVEASVNPISKLPDGFSQLLNLTQLYLNDAFLEFLPANFGRLTKLQILELRENQLKMLPKTMNRLTQLERLDLGSNEFTEVPEVLEQLSGLKEFWMDANRLTFIPGFIGSLKQLTYLDVSKNNIEMVEEGISTCENLQDLLLSSNSLQQLPETIGSLKNITTLKIDENQLMYLPDSIGGLISVEELDCSFNEVEALPSSIGQLTNLRTFAADHNYLQQLPPEIGSWKNITVLFLHSNKLETLPEEMGDMQKLKVINLSDNRLKNLPFSFTKLQQLTAMWLSDNQSKPLIPLQKETDSETQKMVLTNYMFPQQPRTEDVMFISDNESFNPSLWEEQRKQRAQVAFECDEDKDEREAPPREGNLKRYPTPYPDELKNMVKTVQTIVHRLKDEETNEDSGRDLKPHEDQQDINKDVGVKTSESTTTVKSKVDEREKYMIGNSVQKISEPEAEISPGSLPVTANMKASENLKHIVNHDDVFEESEELSSDEEMKMAEMRPPLIETSINQPKVVALSNNKKDDTKETDSLSDEVTHNSNQNNSNCSSPSRMSDSVSLNTDSSQDTSLCSPVKQTHIDINSKIRQEDENFNSLLQNGDILNSSTEEKFKAHDKKDFNLPEYDLNVEERLVLIEKSVDSTATADDTHKLDHINMNLNKLITNDTFQPEIMERSKTQDIVLGTSFLSINSKEETEHLENGNKYPNLESVNKVNGHSEETSQSPNRTEPHDSDCSVDLGISKSTEDLSPQKSGPVGSVVKSHSITNMEIGGLKIYDILSDNGPQQPSTTVKITSAVDGKNIVRSKSATLLYDQPLQVFTGSSSSSDLISGTKAIFKFDSNHNPEEPNIIRGPTSGPQSAPQIYGPPQYNIQYSSSAAVKDTLWHSKQNPQIDHASFPPQLLPRSESTENQSYAKHSANMNFSNHNNVRANTAYHLHQRLGPARHGEMWAISPNDRLIPAVTRSTIQRQSSVSSTASVNLGDPGSTRRAQIPEGDYLSYREFHSAGRTPPMMPGSQRPLSARTYSIDGPNASRPQSARPSINEIPERTMSVSDFNYSRTSPSKRPNARVGSEHSLLDPPGKSKVPRDWREQVLRHIEAKKLEKKHPQTSSSGDPCQDGIFISGQQNYSSATLSHKDVPPDSLMKMPLSNGQMGQPLRPQANYSQIHHPPQASVARHPSREQLIDYLMLKVAHQPPYTQPHCSPRQGHELAKQEIRVRVEKDPELGFSISGGVGGRGNPFRPDDDGIFVTRVQPEGPASKLLQPGDKIIQANGYSFINIEHGQAVSLLKTFQNTVELIIVREVSS
B2: adiponectin; sequence looked up; chain ETTTQGPGVLLPLPKGACTGWMAGIPGHPGHNGAPGRDGRDGTPGEKGEKGDPGLIGPKGDIGETGVPGAEGPRGFPGIQGRKGEPGEGAYVYRSAFSVGLETYVTIPNMPIRFTKIFYNQQNHYDGSTGKFHCNIPGLYYFAYHITVYMKDVKVSLFKKDKAMLFTYDQYQENNVDQASGSVLLHLEVGDQVWLQVYGEGERNGLYADNDNDSTFTGFLLYHDTN
B3: human RBM10; sequence looked up; chain MEYERRGGRGDRTGRYGATDRSQDDGGENRSRDHDYRDMDYRSYPREYGSQEGKHDYDDSSEEQSAEDSYEASPGSETQRRRRRRHRHSPTGPPGFPRDGDYRDQDYRTEQGEEEEEEEDEEEEEKASNIVMLRMLPQAATEDDIRGQLQSHGVQAREVRLMRNKSSGQSRGFAFVEFSHLQDATRWMEANQHSLNILGQKVSMHYSDPKPKINEDWLCNKCGVQNFKRREKCFKCGVPKSEAEQKLPLGTRLDQQTLPLGGRELSQGLLPLPQPYQAQGVLASQALSQGSEPSSENANDTIILRNLNPHSTMDSILGALAPYAVLSSSNVRVIKDKQTQLNRGFAFIQLSTIVEAAQLLQILQALHPPLTIDGKTINVEFAKGSKRDMASNEGSRISAASVASTAIAAAQWAISQASQGGEGTWATSEEPPVDYSYYQQDEGYGNSQGTESSLYAHGYLKGTKGPGITGTKGDPTGAGPEASLEPGADSVSMQAFSRAQPGAAPGIYQQSAEASSSQGTAANSQSYTIMSPAVLKSELQSPTHPSSALPPATSPTAQESYSQYPVPDVSTYQYDETSGYYYDPQTGLYYDPNSQYYYNAQSQQYLYWDGERRTYVPALEQSADGHKETGAPSKEGKEKKEKHKTKTAQQIAKDMERWARSLNKQKENFKNSFQPISSLRDDERRESATADAGYAILEKKGALAERQHTSMDLPKLASDDRPSPPRGLVAAYSGESDSEEEQERGGPEREEKLTDWQKLACLLCRRQFPSKEALIRHQQLSGLHKQNLEIHRRAHLSENELEALEKNDMEQMKYRDRAAERREKYGIPEPPEPKRRKYGGISTASVDFEQPTRDGLGSDNIGSRMLQAMGWKEGSGLGRKKQGIVTPIEAQTRVRGSGLGARGSSYGVTSTESYKETLHKTMVTRFNEAQ
B4: plakophilin-1 (human); sequence looked up; chain MNHSPLKTALAYECFQDQDNSTLALPSDQKMKTGTSGRQRVQEQVMMTVKRQKSKSSQSSTLSHSNRGSMYDGLADNYNYGTTSRSSYYSKFQAGNGSWGYPIYNGTLKREPDNRRFSSYSQMENWSRHYPRGSCNTTGAGSDICFMQKIKASRSEPDLYCDPRGTLRKGTLGSKGQKTTQNRYSFYSTCSGQKAIKKCPVRPPSCASKQDPVYIPPISCNKDLSFGHSRASSKICSEDIECSGLTIPKAVQYLSSQDEKYQAIGAYYIQHTCFQDESAKQQVYQLGGICKLVDLLRSPNQNVQQAAAGALRNLVFRSTTNKLETRRQNGIREAVSLLRRTGNAEIQKQLTGLLWNLSSTDELKEELIADALPVLADRVIIPFSGWCDGNSNMSREVVDPEVFFNATGCLRKRLGMRELLALVPQRATSSRVNLSSADAGRQTMRNYSGLIDSLMAYVQNCVAASRCDDKSVENCMCVLHNLSYRLDAEVPTRYRQLEYNARNAYTEKSSTGCFSNKSDKMMNNNYDCPLPEEETNPKGSGWLYHSDAIRTYLNLMGKSKKDATLEACAGALQNLTASKGLMSSGMSQLIGLKEKGLPQIARLLQSGNSDVVRSGASLLSNMSRHPLLHRVMGNQVFPEVTRLLTSHTGNTSNSEDILSSACYTVRNLMASQPQLAKQYFSSSMLNNIINLCRSSASPKAAEAARLLLSDMWSSKELQGVLRQQGFDRNMLGTLAGANSLRNFTSRF
B5: PRPS2 (human); sequence looked up; chain PNIVLFSGSSHQDLSQRVADRLGLELGKVVTKKFSNQETSVEIGESVRGEDVYIIQSGCGEINDNLMELLIMINACKIASSSRVTAVIPCFPYARQDKKDKSRAPISAKLVANMLSVAGADHIITMDLHASQIQGFFDIPVDNLYAEPAVLQWIRENIAEWKNCIIVSPDAGGAKRVTSIADRLNVEFALIHKERKKANEVDRMVLVGDVKDRVAILVDDMADTCGTICHAADKLLSAGATKVYAILTHGIFSGPAISRINNAAFEAVVVTNTIPQEDKMKHCTKIQVIDISMILAEAIRRTHNGESVSYLFSHVPL
B6: human HSPA4; sequence looked up; chain MSVVGIDLGFQSCYVAVARAGGIETIANEYSDRCTPACISFGPKNRSIGAAAKSQVISNAKNTVQGFKRFHGRAFSDPFVEAEKSNLAYDIVQLPTGLTGIKVTYMEEERNFTTEQVTAMLLSKLKETAESVLKKPVVDCVVSVPCFYTDAERRSVMDATQIAGLNCLRLMNETTAVALAYGIYKQDLPALEEKPRNVVFVDMGHSAYQVSVCAFNRGKLKVLATAFDTTLGGRKFDEVLVNHFCEEFGKKYKLDIKSKIRALLRLSQECEKLKKLMSANASDLPLSIECFMNDVDVSGTMNRGKFLEMCNDLLARVEPPLRSVLEQTKLKKEDIYAVEIVGGATRIPAVKEKISKFFGKELSTTLNADEAVTRGCALQCAILSPAFKVREFSITDVVPYPISLRWNSPAEEGSSDCEVFSKNHAAPFSKVLTFYRKEPFTLEAYYSSPQDLPYPDPAIAQFSVQKVTPQSDGSSSKVKVKVRVNVHGIFSVSSASLVEVHKSEENEEPMETDQNAKEEEKMQVDQEEPHVEEQQQQTPAENKAESEEMETSQAGSKDKKMDQPPQAKKAKVKTSTVDLPIENQLLWQIDREMLNLYIENEGKMIMQDKLEKERNDAKNAVEEYVYEMRDKLSGEYEKFVSEDDRNSFTLKLEDTENWLYEDGEDQPKQVYVDKLAELKNLGQPIKIRFQESEERPKLFEELGKQIQQYMKIISSFKNKEDQYDHLDAADMTKVEKSTNEAMEWMNNKLNLQNKQSLTMDPVVKSKEIEAKIKELTSTCSPIISKPKPKVEPPKEEQKNAEQNGPVDGQGDNPGPQAAEQGTDTAVPSDSDKKLPEMDID

MTVCNASQRQAHAQATAVSL  selectivity ratio (HCC366; phage binding; peptide; baseline: targeting over control phage): 1.2 ± 0.49
catalase  protein level (LS174T; western blot, measured: p27; concentration not given, 48 h): increased
B1 (human erbin)  log2 fold change (CYB5R4 knockout human cells; PP4 interaction, 3xFLAG-PP4C IP-MS; concentration not given; baseline: CYB5R4 KO over parental): 0.63
monocyte chemoattractant protein-1  monocyte migration (THP-1 monocytes; chemoattractant, transwell migration; 30 ng/mL, 15 h): increased
AUACUUUAG (ssRNA)  Kd (U2AF2; sequencing of bound RNA; RNA; motif only): 2.4 µM
Peginesatide  phosphorylation level (UT7/EPO; tyrosine phosphorylation, LC-MS/MS phosphoproteomics, GluC, measured: FRS2 tyrosine 195; 10 nM, 15 min, added: 10 U/mL EPO; baseline: vehicle): 4.3 fold
RTDPIPLSF  GFP-positive cells (Jurkat expressing engineered TCR; NFAT-eGFP reporter, fluorescence microscopy; peptide; concentration not given, HLA-A*01:01 on EL4 cells): 0.504%
B2 (adiponectin)  mRNA level (HUVEC; real-time PCR, measured: E-selectin; 15 µg/mL, 24 h, unit not given, added: TNF-α and IFN-γ; baseline: stimulated untreated): 0.69 ± 0.01
MVDPIGMHY  GFP-positive cells (Jurkat NFAT-eGFP expressing engineered TCR; NFAT reporter gene; peptide; concentration not given, HLA-A*01:01 presentation): 0.619%
B3 (human RBM10)  log2 fold change (CYB5R4 knockout human cells; PP6 interaction, 3xFLAG-PP6C IP-MS; concentration not given; baseline: CYB5R4 KO over parental): -0.64
UGUGUUCUU (ssRNA)  Kd (U2AF2; sequencing of bound RNA; RNA; motif only): 2.17 µM
epoetin alfa  mRNA level (UT7/EPO; RT-qPCR, measured: MYC; concentration not given, 90 min, normalized to HPRT1; baseline: vehicle): 2.8 fold
MTDPIGQDF  GFP-positive cells (Jurkat expressing engineered TCR; NFAT-eGFP reporter, fluorescence microscopy; peptide; concentration not given, HLA-A*01:01 on EL4 cells): 0.669%
B4 (plakophilin-1)  log2 fold change (CYB5R4 knockout human cells; PP6 interaction, 3xFLAG-PP6C IP-MS; concentration not given; baseline: CYB5R4 KO over parental): 1.59
LADPHVDEY  GFP-positive cells (Jurkat expressing engineered TCR; NFAT-eGFP reporter, fluorescence microscopy; peptide; concentration not given, HLA-A*01:01 on EL4 cells): 0.461%
B5 (PRPS2)  log2 fold change (CYB5R4 knockout human cells; PP4 interaction, 3xFLAG-PP4C IP-MS; concentration not given; baseline: CYB5R4 KO over parental): 1.47
EIDPIPLDY  GFP-positive cells (Jurkat expressing engineered TCR; NFAT-eGFP reporter, fluorescence microscopy; peptide; concentration not given, HLA-A*01:01 on EL4 cells): 12%
B6 (human HSPA4)  log2 fold change (CYB5R4 knockout human cells; PP4 interaction, 3xFLAG-PP4C IP-MS; concentration not given; baseline: CYB5R4 KO over parental): -0.45
colistin  MIC (Acinetobacter baumannii; broth microdilution; clinical isolate RKI-No_12/16): ≤ 0.5 µg/mL
IGF-1  proliferation (HUVEC; EdU incorporation; 10 nM, 48 h): 18.9%
human RAB7A  log2 fold change (CYB5R4 knockout human cells; PP4 interaction, 3xFLAG-PP4C IP-MS; concentration not given; baseline: CYB5R4 KO over parental): 2.56

Repeated from above:
AUACUUUAG (ssRNA)  Kd (U2AF2; sequencing of bound RNA; RNA; motif only): 2.4 µM
Peginesatide  phosphorylation level (UT7/EPO; tyrosine phosphorylation, LC-MS/MS phosphoproteomics, GluC, measured: FRS2 tyrosine 195; 10 nM, 15 min, added: 10 U/mL EPO; baseline: vehicle): 4.3 fold
RTDPIPLSF  GFP-positive cells (Jurkat expressing engineered TCR; NFAT-eGFP reporter, fluorescence microscopy; peptide; concentration not given, HLA-A*01:01 on EL4 cells): 0.504%
